Experimental data from different studies.
Parts stem from different laboratories: compare values within a part only.

Study 1
Target: Interferon regulatory factor 5, full length, phosphomimetic (IRF5, Homo sapiens, UniProt Q13568-2, residues 1-514, K96S/S451D/S453D/S456D/S462D)
Method: protein-binding microarray
Molecule type: double-stranded DNA, one strand shown
Matrix: in vitro
Concentration: 250 nM
Setting: 60-bp whole probe
With: salmon DNA 0.4 mg/ml
Reference: random background probes
Direction: higher = stronger binding
Measurement: log fluorescence
Constant ends, left off below: GCCTAGCAC … GTCTTGATTCGCTTGACGCTGCTG
TCAGATTTTGCTTTCATACTGTGCTAG: 2.7 z-score
GACTGTCTCGGTCTCGGGACGTGCTAG: 0.281 z-score
TTAGGTTTCCTTTTCCTGTAGTGCTAG: 1.54 z-score
GACGATATCGGTCTCGAGACGTGCTAG: 3.73 z-score
TTTGGTTTCGACTTTCGGTTAGTGCTA: 10.8 z-score
TTAGATAGCGGGACTGGATTAGTGCTA: -0.182 z-score

Study 2
Target: Sal-like protein 4, full length isoform A (SALL4, Homo sapiens, UniProt Q9UJQ4, residues 1-1053)
UniProt Q9UJQ4, sequence (whole entry, looked up): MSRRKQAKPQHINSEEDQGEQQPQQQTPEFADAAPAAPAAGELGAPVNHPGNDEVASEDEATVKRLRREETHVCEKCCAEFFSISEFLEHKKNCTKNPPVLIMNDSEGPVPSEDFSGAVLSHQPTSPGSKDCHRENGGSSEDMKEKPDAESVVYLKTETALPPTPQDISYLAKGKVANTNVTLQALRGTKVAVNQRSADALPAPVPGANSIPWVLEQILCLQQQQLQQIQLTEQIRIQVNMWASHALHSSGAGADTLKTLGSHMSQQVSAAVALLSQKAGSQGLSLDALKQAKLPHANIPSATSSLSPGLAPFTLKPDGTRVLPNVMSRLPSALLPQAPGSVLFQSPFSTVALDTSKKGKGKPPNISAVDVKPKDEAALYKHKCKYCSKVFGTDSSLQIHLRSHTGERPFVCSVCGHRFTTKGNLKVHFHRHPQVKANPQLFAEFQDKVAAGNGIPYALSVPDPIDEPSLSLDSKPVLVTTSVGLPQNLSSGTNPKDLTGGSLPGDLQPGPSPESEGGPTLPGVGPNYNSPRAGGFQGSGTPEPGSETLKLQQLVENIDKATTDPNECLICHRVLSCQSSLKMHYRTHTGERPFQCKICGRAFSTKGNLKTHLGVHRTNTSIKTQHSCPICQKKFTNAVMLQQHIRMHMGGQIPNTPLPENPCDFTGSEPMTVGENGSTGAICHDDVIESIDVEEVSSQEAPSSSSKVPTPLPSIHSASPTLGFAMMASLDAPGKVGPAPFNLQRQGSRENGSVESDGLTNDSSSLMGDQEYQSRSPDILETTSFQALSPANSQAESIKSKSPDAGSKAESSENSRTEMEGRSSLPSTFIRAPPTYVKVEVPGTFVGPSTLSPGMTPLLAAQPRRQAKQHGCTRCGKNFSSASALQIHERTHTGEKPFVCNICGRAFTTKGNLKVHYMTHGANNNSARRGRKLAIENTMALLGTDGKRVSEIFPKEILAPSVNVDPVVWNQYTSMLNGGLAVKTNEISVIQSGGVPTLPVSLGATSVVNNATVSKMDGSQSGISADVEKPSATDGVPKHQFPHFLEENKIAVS
Method: universal PBM
Molecule type: double-stranded DNA, one strand shown
Matrix: in vitro
Concentration: 600 nM
Setting: 8-mer, flanks averaged, mean of replicates
Direction: higher = stronger binding
Measurement: E-score
CGATCGAC: 0.0269
AACACCAT: 0.0367
AGCAGGAG: -0.0273
CTTGAATA: 0.221
AACACGGC: -0.123
CTGGTACA: 0.0587
AAAATAAA: 0.373

Study 3
Target: Histone acetyltransferase KAT6A, winged helix 2, GST fusion (KAT6A, Homo sapiens, UniProt Q92794, residues 85-181)
Method: protein binding microarray
Molecule type: double-stranded DNA, one strand shown
Matrix: in vitro
Concentration: not given
Setting: 8-mer, flanks averaged, mean of 2 arrays, mostly near background
Reference: not given
Direction: higher = stronger binding
Measurement: E-score
Target sequence (chain): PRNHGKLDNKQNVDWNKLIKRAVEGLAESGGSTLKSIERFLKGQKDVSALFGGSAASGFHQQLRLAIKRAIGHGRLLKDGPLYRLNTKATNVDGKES
CATACTTC: -0.111
ACACGCAC: -0.0368
AGCTGGAT: 0.0393
AACAAGGG: 0.00857
AAATGTAA: -0.0436
CTAGAGTA: -0.0932

Single results of other studies
PhoQ, residues 284 288 289 292 302 303 AGHLVA — fold induction (PhoP, residues 12 14 15 18 19 LYHSL (Escherichia coli, UniProt P23836); Sort-seq, refers to: YFP reporter; E. coli; PhoQ-PhoP variant library, with: 10 µM Mg2+; reference: high Mg2+ state, higher = stronger signaling): 3.13

For quick reference, copied from above (study 2):
CTGGTACA: 0.0587
CGATCGAC: 0.0269
CTTGAATA: 0.221
